{"data": "Assay results pooled from the literature", "target": "Transcriptional activator protein LasR (lasR, Pseudomonas aeruginosa, UniProt P25084)", "effect on": "reporter gene", "Sequence (P25084 1-239, as in one of the studies)": "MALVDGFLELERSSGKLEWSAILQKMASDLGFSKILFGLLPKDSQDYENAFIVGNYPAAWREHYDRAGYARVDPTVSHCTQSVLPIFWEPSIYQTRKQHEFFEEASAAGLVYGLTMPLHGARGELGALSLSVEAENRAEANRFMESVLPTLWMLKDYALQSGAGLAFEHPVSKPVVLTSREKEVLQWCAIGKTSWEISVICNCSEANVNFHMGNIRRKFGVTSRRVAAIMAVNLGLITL"}
{"Compound": "O=C(Cn1cc(-c2cc(F)cc(F)c2)nn1)N[C@H]1CCOC1=O", "test": "antagonist", "setting": "100 µM, with: OdDHL 10 nM", "measurement": "inhibition", "value": "71%"}
{"Compound": "CCCCCCCCCCNC(=O)CC(=O)c1ccccc1", "test": "antagonist", "system": "Pseudomonas aeruginosa PAO-JP2 GFP reporter", "setting": "with: 150 nM OdDHL", "measurement": "maximum inhibition", "value": "93%"}
{"Compound": "O=C(Cc1c(F)c(F)c(F)c(F)c1F)N[C@H]1CCOC1=O", "test": "antagonist", "system": "Escherichia coli JLD271 pJN105L pSC11", "setting": "100 µM, with: 2 nM OdDHL", "scale": "baseline: untreated, negative means agonism", "measurement": "inhibition", "value": "76%"}
{"Compound": "CCCc1cn(-c2cccc(C(=O)N[C@H]3CCOC3=O)c2)nn1", "test": "agonist", "system": "Escherichia coli, DH5α pJN105L/pSC11", "setting": "100 µM", "scale": "baseline: OdDHL at same concentration", "measurement": "activation", "value": "1%"}
{"Compound": "CCCCCCCCCC(=O)NC1CCCC1", "test": "antagonist", "system": "PAO-JP2 plasI-LVAgfp", "setting": "200 µM, with: OdDHL 150 nM", "measurement": "inhibition", "value": "~50%"}
{"Compound": "O=C(N[C@H]1CCOC1=O)C1CCCC1", "test": "agonist", "system": "Escherichia coli JLD271/pJN105L/pSC11", "setting": "100 µM", "scale": "baseline: OdDHL 100 µM", "measurement": "activation", "value": "-4%"}
{"Compound": "O=C(CCc1ccc(C(F)(F)F)cc1)N[C@H]1CCOC1=O", "test": "agonist", "system": "Escherichia coli, JLD271 pJN105L pSC11", "measurement": "Emax", "value": "105%"}
{"Compound": "O=C(CCCc1ccccc1)N[C@H]1CCOC1=O", "test": "antagonist", "setting": "10 µM, with: 1 10 nM", "measurement": "inhibition", "value": "0%"}
{"Compound": "O=C(N[C@H]1CCOC1=O)c1ccc(-n2cc(-c3ccccc3)nn2)cc1", "test": "antagonist", "setting": "100 µM, with: OdDHL 10 nM", "measurement": "inhibition", "value": "38%"}
{"Compound": "CCCCCCCCCCCNC(=O)CC(=O)c1ccccc1", "test": "antagonist", "system": "Pseudomonas aeruginosa PAO-JP2 GFP reporter", "setting": "with: 150 nM OdDHL", "measurement": "maximum inhibition", "value": "92%"}
{"note": "Some of these lines once more:"}
{"Compound": "O=C(CCCc1ccccc1)N[C@H]1CCOC1=O", "test": "antagonist", "setting": "10 µM, with: 1 10 nM", "measurement": "inhibition", "value": "0%"}
